Results pooled from the literature.
Compare with care: the assays were run in different laboratories.

Structure (SMILES)	test system	conditions	half-life [h]
Fc1cncc(-c2ccc3[nH]c4ncnc(N[C@H]5CC[C@H](N6CCOCC6)CC5)c4c3c2)c1	CD-1 mouse, plasma	intravenous, 1 mg/kg	1.21
COc1cnc2cccc(N3CCc4c(cc(Cn5ccnc5)cc4-c4cn(C)nc4C(F)(F)F)C3=O)c2c1	male CD-1 mouse, plasma	oral, 10 mg/kg	1.3
O=C(C1CC1)N1CCC=C(c2cc3c(Nc4cc5ncsc5cc4F)ncnc3s2)C1	mouse, plasma	oral, 10 mg/kg	2.43
FC(F)(F)Oc1ccc2[nH]c(-c3ccc(OCCN4CCOCC4)cn3)nc2c1	mouse, plasma	intraperitoneal, 100 mg/kg	2.98
CC[C@H](C)[C@@H]1NC(=O)[C@@](C)(NC(=O)[C@H](CCCNC(=N)N)NC(=O)[C@H](CC(C)C)NC(=O)[C@]2(C)CCCC=CCCC[C@](C)(NC(C)=O)C(=O)N[C@@H](CC(C)C)C(=O)N[C@@H](CCC(N)=O)C(=O)N2)CCCC=CCCC[C@@](C)(C(=O)N[C@@H](CC(C)C)C(=O)N[C@@H](Cc2ccc3ccccc3c2)C(=O)NCCC(=O)NCCC(N)=O)NC(=O)[C@H](CCCNC(=N)N)NC(=O)[C@H](CCC(N)=O)NC1=O	male BALB/c mouse, plasma	intravenous, 30 mg/kg	7.03
Cc1cc(NC(=O)[C@H](O)c2cc(F)cc(F)c2)ccc1-c1cnc(N)c(C(=O)NC(C)C)c1	female nude mouse, plasma	oral, 3 mg/kg, single dose	1.8
CCn1cc(-c2cc(Cn3ccnc3)cc3c2CCN([C@H](c2cc(OC)ccn2)C2CC2)C3=O)c(C(F)(F)F)n1	male CD-1 mouse, plasma	intravenous, 3 mg/kg	0.9
CC(=O)N1c2ccc(-c3ccc(CNC(=O)c4cn5cc(-c6cnc(N)nc6)nc(N6CCOCC6)c5n4)cc3)cc2CC[C@@H]1C	female C57BL/6 mouse, plasma	intraperitoneal, 45 mg/kg, single dose	1.7
O=C(Nc1ccc(C(F)F)cc1)[C@H](CC1CCCCC1)Nc1nn2c(=O)ccnc2s1	female nude mouse, plasma	intravenous, 1 mg/kg	0.57
COc1ccccc1/C=C/CNCC(O)COc1ccc(Nc2ccccc2)cc1 (racemic)	mouse, plasma	intraperitoneal, 10 mg/kg	7.94
Fc1cccc(-n2cc(-c3ccccc3)nc2NCc2ccc(C(F)(F)F)c(Br)c2)c1	male CD-1 mouse, plasma	intraperitoneal, 25 mg/kg, single dose	7.51
Cc1ncsc1-c1ccc(CNC(=O)[C@@H]2C[C@@H](O)CN2C(=O)[C@@H](NC(=O)COCC(C)(COCCOCCOCCNC(=O)C[C@@H]2N=C(c3ccc(Cl)cc3)c3c(sc(C)c3C)-n3c(C)nnc32)COCCOCCOCCNC(=O)C[C@@H]2N=C(c3ccc(Cl)cc3)c3c(sc(C)c3C)-n3c(C)nnc32)C(C)(C)C)cc1	male C57BL/6 mouse, plasma	intravenous, 5 mg/kg, single dose	2.13
C/C(=N\Nc1ncnc2sc3c(c12)CCCC3)c1cc(O)ccc1O	CD-1 mouse, plasma	intraperitoneal, 10 mg/kg, single dose	5.83
CC[C@H](C)/C=C/C=C/C=C/C(O)=C/C(=O)C(F)(F)F	female C57BL/6 mouse, plasma	oral, 25 mg/kg	1
CCC1C(COc2nccc3cc(C(N)=O)c(OC)cc23)NC(=O)C1F (stereo not shown)	CD-1 mouse, plasma	oral, 10 mg/kg	6.65
Cc1cc(NCCOC(C)C)c2nc(N3CCOC[C@H]3C)cc(=O)n2c1	C57BL/6 mouse, plasma	intraperitoneal, 10 mg/kg, single dose	1.05
Nc1ccc(-c2cc(Cl)c(Cl)c3[nH]c4c(c23)CN(C(=O)CO)CC4)cn1	C57BL/6 mouse, blood	intravenous, 0.5 mg/kg	0.421
C[C@@H](Nc1nc2c(cnn2C(C)(C)C)c(=O)n1Cc1cccc(F)c1)c1ccc(Cl)cc1	C57BL/6 mouse, plasma	intravenous, 2.5 mg/kg	9.5
O=C1CCC(N2C(=O)c3ccc(N4CCC(C(=O)N5CCC(CCN6CCC(CNC(=O)c7cccc(-c8noc(C(F)(F)F)n8)c7)(c7nc(-c8ccccc8)cs7)CC6)CC5)CC4)cc3C2=O)C(=O)N1 (stereo not shown)	CD-1 mouse, plasma	oral, 30 mg/kg	1.23

Structure (SMILES)	test system	conditions	half-life [h]
CCC(=O)N1CCC=C(c2cc3c(Nc4cc5ncsc5cc4F)ncnc3s2)C1	mouse, plasma	intravenous, 10 mg/kg	3.3
Oc1ccc([C@@H]2Oc3ccc(O)cc3[C@@H]3CCC[C@@H]32)cc1	male C57BL/6 mouse, plasma	oral, 10 mg/kg	3
Cn1ccc(-c2cc(Cl)c(Cl)c3[nH]c4c(c23)CN(C(=O)CO)CC4)n1	C57BL/6 mouse, blood	oral, 20 mg/kg	2.44
C[C@@H](Nc1c(-c2c(F)cc(C#N)cc2F)c(Cl)nc2ncnn12)C(C)(C)C	male CD-1 mouse, plasma	oral, 20 mg/kg	5.1
COC1C(c2ccc(Cl)c(Cc3ccc(OC4CCOC4)cc3)c2)OC(CO)C(O)C1O (stereo not shown)	CD-1 mouse, plasma	oral, 10 mg/kg	2.36
O=C1C2CC3CC1CC(C(=O)N1CCN(c4ccc([N+](=O)[O-])c5ncccc45)CC1)(C3)C2	male CD-1 mouse, plasma	intravenous, 1 mg/kg	0.224
OCCn1nc(-c2ccccc2)c2c(Cl)c(-c3ccccc3)nnc21	mouse, plasma	intraperitoneal, 3 mg/kg	0.85
CCC(=O)NC1CC=C(c2cc3c(Nc4cc5ncsc5cc4F)ncnc3s2)CC1 (racemic)	mouse, plasma	oral, 10 mg/kg	5.16
COC(=O)C1=CNC=C(C(=O)OC)C1c1ccc(F)c(C(F)(F)F)c1	male C57BL/6 mouse, plasma	intravenous, 2 mg/kg	5.15
CC(C)(O)Cn1nc(-c2ccccc2)c2c(Cl)c(-c3ccccc3)nnc21	mouse, plasma	intraperitoneal, 10 mg/kg	0.35
COc1cccc2c(N3CCC(CCP(=O)(O)O)CC3)ncnc12	female C57BL/6 mouse, brain	subcutaneous, 100 mg/kg	3.5
N#CCCC1CCN(C(=S)c2ccc(-c3cc(Cl)ccc3Cl)o2)CC1	male BALB/c mouse, plasma	oral, 10 mg/kg	2.11
O=C(O)c1ccc(/C=C2\SC(=S)N(Cc3cccc(C(F)(F)F)c3)C2=O)cc1	C57BL/6 mouse, blood	intravenous, 5 mg/kg	1.8
CC(=O)N1CCC=C(c2cc3c(Nc4cc5ncsc5cc4F)ncnc3s2)C1	mouse, plasma	oral, 10 mg/kg	3.3
CC[C@H](C)/C=C/C=C/C=C/C(O)=C/C(=O)C(Cl)(Cl)Cl	female C57BL/6 mouse, plasma	oral, 25 mg/kg	1.4
C/C(N)=N/C(=N\S(=O)(=O)c1ccc(C(F)(F)F)cc1)N1C[C@H](c2ccccc2)C(c2ccc(Cl)cc2)=N1	male C57BL/6 mouse, liver	intravenous, 5 mg/kg	2.9
CC(C)NC(=O)NC1CC=C(c2cc3c(Nc4cc5ncsc5cc4F)ncnc3s2)CC1 (racemic)	mouse, plasma	intravenous, 10 mg/kg	5.33
O=S(=O)(Nc1ccc(OC(F)(F)F)cc1)N1CCCC(C2c3ccc(F)cc3CCc3cc(F)ccc32)C1 (stereo not shown)	mouse, plasma	oral, 30 mg/kg	6.6

Repeated from above:
Structure (SMILES)	test system	conditions	half-life [h]
Oc1ccc([C@@H]2Oc3ccc(O)cc3[C@@H]3CCC[C@@H]32)cc1	male C57BL/6 mouse, plasma	oral, 10 mg/kg	3
Cn1ccc(-c2cc(Cl)c(Cl)c3[nH]c4c(c23)CN(C(=O)CO)CC4)n1	C57BL/6 mouse, blood	oral, 20 mg/kg	2.44
C[C@@H](Nc1c(-c2c(F)cc(C#N)cc2F)c(Cl)nc2ncnn12)C(C)(C)C	male CD-1 mouse, plasma	oral, 20 mg/kg	5.1
COC1C(c2ccc(Cl)c(Cc3ccc(OC4CCOC4)cc3)c2)OC(CO)C(O)C1O (stereo not shown)	CD-1 mouse, plasma	oral, 10 mg/kg	2.36
O=C1C2CC3CC1CC(C(=O)N1CCN(c4ccc([N+](=O)[O-])c5ncccc45)CC1)(C3)C2	male CD-1 mouse, plasma	intravenous, 1 mg/kg	0.224
